Measurements gathered from unrelated publications.
Lines come from different studies, so protocols differ.
Target: Serine/threonine-protein kinase LATS1 (LATS1, Homo sapiens, UniProt O95835)

SMILES = COc1cc(Nc2nccc(-c3cnn4nc(OC)ccc34)n2)cc(C(F)(F)F)c1; test = binding, competition with immobilised ligand; setting = 1 µM; measurement = remaining binding; value = 71%
SMILES = Cc1cccc(O[C@H]2CCC[C@@H](C(C)CNCc3ccncc3)C2)c1 (relative stereo); test = enzyme activity, inhibitor; setting = 10 µM; measurement = inhibition; value = -3%
SMILES = NC(=O)[C@@H](O)C[C@H]1CCc2sc3ncnc(O[C@H]4CC[C@H](N5CCOCC5)CC4)c3c21; test = enzyme activity, inhibitor; setting = 10 µM; measurement = inhibition; value = 4%
SMILES = Nc1ncc2c(n1)-c1c([nH]c3ccc(C4=CCOCC4)cc13)CCC2; test = binding, competition with immobilised ligand; setting = 1 µM; measurement = remaining binding; value = 79%
SMILES = C=CC(=O)N1CCCC(n2c(=O)c3ncccc3n(Cc3ccc(Oc4ccccc4)cc3)c2=O)C1 (stereo not shown); test = cell-free assay, competition with immobilised ligand; setting = 1 µM; measurement = remaining binding; value = 100%
SMILES = COc1cc(Nc2nc(C)cc(-c3cnn4nc(OC)ccc34)n2)cc(C(F)(F)F)c1; test = inhibitor; setting = 1 µM; how to read = relative to: control; measurement = remaining activity; value = 100%
SMILES = COc1c(Cl)cccc1Nc1c(-c2ccncc2C#C[C@@]2(C)CCCN2C(=O)/C=C/CN(C)C)[nH]c2c1C(=O)NCC2; test = binding, competition with immobilised ligand; setting = 3 µM; measurement = remaining binding; value = 100%
SMILES = CN1CCN(Cc2ccc(-c3ccc(CO[C@H]4CCC[C@@H]4NC(=O)c4cc(-c5cnn(C)c5)cnc4N)cc3)cc2)CC1; test = enzyme activity, inhibitor; setting = 0.1 µM; measurement = inhibition; value = 17%
SMILES = CC(C)=CC1OC(C)(C)C2C=C3C(=O)C(Cl)=CC(O)C3C3C(O)C4OC4C(=O)C132 (stereo not shown); test = cell-free assay, competition with immobilised ligand; setting = 10 µM; measurement = remaining binding; value = 100%
SMILES = Cc1ccc(-c2c(/C=C(\C#N)C(=O)NC(C)C)n(CCCO)c3ncnc(N)c23)cc1; test = cell-free assay, competition with immobilised ligand; setting = 1 µM; measurement = remaining binding; value = 90%
SMILES = Nc1ncc(-c2cc(-c3cnn(CC(F)(F)F)c3)ncc2F)nc1C(=O)NC1CNCC(F)C1 (stereo not shown); test = enzyme activity; setting = 1 µM; how to read = relative to: DMSO control; measurement = remaining activity; value = 93.9%
SMILES = C=CC(=O)N1CCc2ccc(-n3c(=O)ccc4cnc5ccc(-c6cnn(C)c6)cc5c43)cc21; test = KINOMEscan; setting = 1 µM; how to read = relative to: DMSO control; measurement = remaining binding; value = 100%
SMILES = Cc1cnc2nc1Nc1cccc(c1)COC/C=C/COCc1cc(ccc1OCCN1CCOCC1)N2; test = binding; setting = 0.1 µM; measurement = remaining binding; value = 100%
SMILES = CCn1cc(C(=O)O)c(=O)c2c(N)c(F)c(NC3CCCCC3)cc21; test = kinase activity; setting = 0.1 µM, together with: ATP at Km; measurement = inhibition; value = -14.9%
SMILES = NC(=O)C[C@H]1CCc2sc3ncnc(O[C@H]4CC[C@H](N5CCOCC5)CC4)c3c21; test = enzyme activity, inhibitor; setting = 10 µM; measurement = inhibition; value = 4%
SMILES = O=C(Cc1ccc(OCc2ccccc2)cc1)NC1(C(=O)O)CCN(C(=O)c2ccc(-c3cccc(Cl)c3)cc2)CC1; test = enzyme activity, inhibitor; setting = 10 µM; measurement = activity vs control; value = 126%
SMILES = CNC(=O)C1CCN(c2cc(C)c(F)cc2NC(=O)c2ccc(-c3cc(O)ccc3C)c(C)c2)CC1; test = binding, competition with immobilised ligand; setting = 1 µM; measurement = remaining binding; value = 95%
SMILES = CNC1C[S+]2CC[S+]3CC[S+](C1)[Ru-4]321([N]=C=S)[n]2c3ccc(OC)cc3c3c4c(c5cc(F)c[n+]1c5c32)C(=O)NC4=O (stereo not shown); test = KinomeScan; setting = 0.1 µM; how to read = relative to: untreated; measurement = remaining binding; value = 89%
SMILES = CCN1CCN(Cc2ccc(C(=O)Nc3ccc(C)c(NCc4cnc5[nH]ccc5c4OC)c3)cc2C(F)(F)F)CC1; test = binding, competition with immobilised ligand; setting = 1 µM; measurement = remaining binding; value = 100%

Repeated from above:
SMILES = Cc1cnc2nc1Nc1cccc(c1)COC/C=C/COCc1cc(ccc1OCCN1CCOCC1)N2; test = binding; setting = 0.1 µM; measurement = remaining binding; value = 100%
SMILES = CCn1cc(C(=O)O)c(=O)c2c(N)c(F)c(NC3CCCCC3)cc21; test = kinase activity; setting = 0.1 µM, together with: ATP at Km; measurement = inhibition; value = -14.9%
SMILES = NC(=O)C[C@H]1CCc2sc3ncnc(O[C@H]4CC[C@H](N5CCOCC5)CC4)c3c21; test = enzyme activity, inhibitor; setting = 10 µM; measurement = inhibition; value = 4%
